Published values of several laboratories.
Numbered parts are unrelated; each lists some results of a single study. Positions count from the first letter of the parent shown.

Sample 1
Target: Ras GTPase-activating protein-binding protein 1, full length (G3BP1, Homo sapiens, UniProt Q13283)
Sequence of UniProt Q13283 (whole entry, looked up): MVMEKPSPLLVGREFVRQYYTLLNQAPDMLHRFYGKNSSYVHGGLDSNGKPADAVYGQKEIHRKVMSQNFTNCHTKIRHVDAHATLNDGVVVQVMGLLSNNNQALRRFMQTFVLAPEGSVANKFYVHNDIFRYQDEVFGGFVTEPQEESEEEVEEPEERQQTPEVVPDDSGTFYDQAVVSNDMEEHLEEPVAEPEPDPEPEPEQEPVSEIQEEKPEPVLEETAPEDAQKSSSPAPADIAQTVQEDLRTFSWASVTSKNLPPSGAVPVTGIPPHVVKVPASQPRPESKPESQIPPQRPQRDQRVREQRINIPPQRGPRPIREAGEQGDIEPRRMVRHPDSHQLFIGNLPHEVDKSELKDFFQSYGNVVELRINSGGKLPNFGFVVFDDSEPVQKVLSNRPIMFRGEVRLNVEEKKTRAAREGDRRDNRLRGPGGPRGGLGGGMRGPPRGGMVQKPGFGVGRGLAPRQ
Method: RNA Bind-n-Seq
Form: RNA
Matrix: in vitro
Tested at: 200 nM
Setting: whole 134-nt RNA, ends assumed
Added: 150 mM LiCl
Relative to: input library
Direction: higher = stronger binding
All molecules: 7-deaza-guanosine replaces G
Shared flanks, not repeated: GGGAGUUCUACAGUCCGACGAUC … UGGAAUUCUCGGGUGUCAAGG
The log2 enrichment of `AGUCCUGUGCUACACAUCGUAUGUACCGAAUCGGCCCCCGGGCCCCCGGGGCCCCCGGAAAGUAUUAUGUUACGCCGUUCGGAUCUGCAC` is reported as -2.11.
The log2 enrichment of `UGGAGAGGGAAGUCCCAAUGGUGCUAGAAUGGUGCUGCAGUGGCAGAAGACGGCUCACAAGUGAGGUCUGGAAGAACAACAGGGAAGACA` is reported as 0.167.
With `UGGCCCUGGUGGCAUGCGGGGAGGAAGAGGUGGCCUCAUGGAUCGUGGUGGUCCCGGUGGAAUGUUCAGAGGUGGCAGUGGUGGAGACAG` the log2 enrichment was -0.154.
For `UCCUGUGCUACACAUCGUAUGUACCGAAUCGGGGAAAGGGGAAAAAAAGGGGAAAGGGGAAAGUAUUAUGUUACGCCGUUCGGAUCUGCA`, the log2 enrichment was 0.481.
`UCCUGUGCUACACAUCGUAUGUACCGAAUCGGGGAAAAAGGGGAAAAAGGGAAAAAGGGAAAGUAUUAUGUUACGCCGUUCGGAUCUGCA` gave a log2 enrichment of 0.408.
`GCAGGAAGUAAAAACAAAUGGAAAUGCUUCGGAUAGUGGCAGGGGUGGGGGUUGCUAAGGAAAGGAUGGGAUGGGAGUGGGUAAAGAGUU` gave a log2 enrichment of 0.126.
`CCUGUGCUACACAUCGUAUGUACCGAAUCAAAGUGUGUGUGUGUGAAAUGUGUGUGUGAAAAAAGUAUUAUGUUACGCCGUUCGGAUCUG` gave a log2 enrichment of -1.32.
`CCUCAAGUCCUGUGCUACACAUCGUAUGUACCGAAUCGGUGGGGUGGGUGGGAAAGUAUUAUGUUACGCCGUUCGGAUCUGCACUUCCAG` gave a log2 enrichment of 0.11.
For `ACCAUGCAGGUGGGCAUCUUUGGGAAUUGGGGCAAGGGGGGGAUAGGGAGGGGGGUAACACUUUGGGAACAGGUGGUCCCAGGUCGUUUC`, the log2 enrichment was 0.37.
For `UUUCGGCUACCCCCAGUUCUUCUUUGCCAAAGCGUACACGUGAAGAGGAAGAGGAUAGCACCAUAGAAGCAUCAGACCAAGUCUCUGAUG`, the log2 enrichment was -1.75.
`ACCAUGCAGGUGGGCAUCUUUGGGAAGUGGGGCAAGGGGGGGAUAGGGAGGGGGAUAACACUUUGGGAACAGGUGGUCCCAGGUCGUUUC` gave a log2 enrichment of 0.442.

Sample 2
Target: Histone acetyltransferase KAT6A, both winged helices, GST fusion (KAT6A, Homo sapiens, UniProt Q92794, residues 1-181)
Method: protein binding microarray
Form: double-stranded DNA, one strand shown
Matrix: in vitro
Tested at: not given
Setting: 8-mer, flanks averaged, mean of 2 arrays, mostly near background
Relative to: not given
Direction: higher = stronger binding
Residues (chain): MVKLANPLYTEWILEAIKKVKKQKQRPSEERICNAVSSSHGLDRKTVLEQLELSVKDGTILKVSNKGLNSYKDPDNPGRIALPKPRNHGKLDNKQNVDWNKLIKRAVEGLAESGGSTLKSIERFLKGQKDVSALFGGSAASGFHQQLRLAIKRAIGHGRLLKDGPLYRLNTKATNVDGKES
The E-score of `TAGTCCGA` is reported as 0.0865.
The E-score of `AGCCGACT` is reported as 0.0425.
For `AAGTTCTA`, the E-score was -0.0404.
`CCAGACGC` gave an E-score of 0.161.
`AAGGCATC` has an E-score of -0.125.
For `TGTGTAAA`, the E-score was -0.0565.
The E-score of `GGCTTTAC` is reported as 0.197.
`AATTGTAC` gave an E-score of -0.0299.
For `AAGCTCAT`, the E-score was -0.0747.
With `ACAGACTG` the E-score was -0.0411.
With `AGCAAACC` the E-score was -0.14.
With `CCGATTAA` the E-score was 0.0579.
With `AACGCTAG` the E-score was -0.0413.
`GTGTATTA` gave an E-score of -0.0662.
With `TCACCTCA` the E-score was -0.11.
`CCTCATCG` gave an E-score of -0.0765.
`ATACAAGG` gave an E-score of -0.0997.
With `CACAATCA` the E-score was -0.117.
For `GTCCAGAC`, the E-score was -0.0358.
For `AGAATGAA`, the E-score was -0.0413.

Sample 3
Target: Interferon regulatory factor 7, full length, phosphomimetic (IRF7, Homo sapiens, UniProt Q92985, residues 1-503, S471D/S472D/S475D/S476D/S477D/S483D/S484D/S487D)
Sequence of UniProt Q92985 (whole entry, unmodified, looked up): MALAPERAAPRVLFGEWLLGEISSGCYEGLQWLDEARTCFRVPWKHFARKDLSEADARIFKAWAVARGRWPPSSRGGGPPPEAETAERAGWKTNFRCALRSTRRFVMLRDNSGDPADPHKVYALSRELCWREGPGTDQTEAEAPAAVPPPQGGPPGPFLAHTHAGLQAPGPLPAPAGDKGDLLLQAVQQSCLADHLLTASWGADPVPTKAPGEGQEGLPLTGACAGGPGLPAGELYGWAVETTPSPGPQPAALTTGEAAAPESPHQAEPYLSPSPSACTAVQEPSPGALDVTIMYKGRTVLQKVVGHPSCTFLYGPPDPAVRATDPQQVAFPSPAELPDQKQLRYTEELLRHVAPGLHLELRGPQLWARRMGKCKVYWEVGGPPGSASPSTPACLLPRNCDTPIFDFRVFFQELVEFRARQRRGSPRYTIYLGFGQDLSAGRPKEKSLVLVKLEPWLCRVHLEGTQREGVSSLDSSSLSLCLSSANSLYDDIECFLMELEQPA
Method: protein-binding microarray
Form: double-stranded DNA, one strand shown
Matrix: in vitro
Tested at: 2200 nM top
Setting: 60-bp whole probe
Added: salmon DNA 0.4 mg/ml
Relative to: random background probes
Direction: higher = stronger binding
Shared flanks, not repeated: GCCTAGCAC … GTCTTGATTCGCTTGACGCTGCTG
For `GACGGACTGGGGTATCAGGACGTGCTA`, “fitted relative affinity” read -1.01 z-score.
Under “fitted relative affinity”, `TTAGGTCTCTGTTTCGGTTAGTGCTAG` is recorded as 4.75 z-score.
Under “fitted relative affinity”, `CAAGTTTGCCTCCTTCAGTCAGTGCTA` is recorded as 1.34 z-score.
`TTAGGCCTGCTTTTCCTTTAGTGCTAG`: “fitted relative affinity” 1.41 z-score.
`TTAGGTCTCCTACTTCTTTAGTGCTAG`: “fitted relative affinity” 0.877 z-score.
Under “fitted relative affinity”, `TTAGGACTGGGTTTGGGTTAGTGCTAG` is recorded as -0.122 z-score.
`GACGGTTCCGGTTTCGGCACGTGCTAG`: “fitted relative affinity” 4.41 z-score.
For `TCATACTTCCCACTGGTACTGTGCTAG`, “fitted relative affinity” read 1.86 z-score.
Under “fitted relative affinity”, `TCACTTCTGCTTCCTCAGACTGTGCTA` is recorded as 2.67 z-score.
`TTACAACTGGGGACTGGATTAGTGCTA`: “fitted relative affinity” 0.218 z-score.
`TTATGTCTCCTTCTCCTTTAGTGCTAG`: “fitted relative affinity” 2.2 z-score.
`GACGGTATCGCTCTCGGGACGTGCTAG` — result for “fitted relative affinity”: 0.224 z-score.
For `GACGATTTCAGACTGCAGACGTGCTAG`, “fitted relative affinity” read 0.545 z-score.
Under “fitted relative affinity”, `TTAGATATCAGACTTGATTAGTGCTAG` is recorded as -0.44 z-score.
Under “fitted relative affinity”, `GACGCTCTCCTTCTCCTGACGTGCTAG` is recorded as 1.47 z-score.
For `TCAACGAATTAGAAAGAGCAGTGCTAG`, “fitted relative affinity” read -0.926 z-score.
`GACGGTTTCGACACTGGCGACGTGCTA` — result for “fitted relative affinity”: 2.5 z-score.
`GACGAACTGAATCTCGAGACGTGCTAG` — result for “fitted relative affinity”: 0.00776 z-score.
`TTAGGTTTCAGACTGGATTAGTGCTAG`: “fitted relative affinity” 0.591 z-score.
Under “fitted relative affinity”, `TTAGGACTGGGACTGGCTTAGTGCTAG` is recorded as -1.01 z-score.
`GACGGCTTCGACTTTCGGGACGTGCTA` — result for “fitted relative affinity”: 2.52 z-score.
For `GTCGAACTGAGTCTCGAGACGTGCTAG`, “fitted relative affinity” read 0.378 z-score.
For `TCATATCCCTAATCTCAGACTGTGCTA`, “fitted relative affinity” read 1.23 z-score.
For `TCAAGAAAGTGAAATACCACTGTGCTA`, “fitted relative affinity” read -0.794 z-score.

Sample 4
Target: ABI1, truncated, D143A, DHFR fusion (Arabidopsis thaliana, UniProt P49597)
Method: DHFR PCA, dose-response
Matrix: yeast
Setting: Hill fit, not affinity, not high confidence
Added: (+)-ABA, dose series
Direction: lower = more sensitive
Starting sequence: PYL1, truncated, DHFR fusion (Arabidopsis thaliana, UniProt Q8VZS8); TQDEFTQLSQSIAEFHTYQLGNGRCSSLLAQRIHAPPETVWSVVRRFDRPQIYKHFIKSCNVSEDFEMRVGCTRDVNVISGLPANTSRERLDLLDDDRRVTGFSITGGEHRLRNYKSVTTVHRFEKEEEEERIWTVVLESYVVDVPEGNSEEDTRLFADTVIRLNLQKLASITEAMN
The ABA EC50 of `L91G` is reported as 354 µM.
`V137P` gave an ABA EC50 of 745 µM.
The ABA EC50 of `S140W` is reported as 275 µM.
`V121P` gave an ABA EC50 of 2.68 µM.
`V145D` has an ABA EC50 of 579 µM.
`K54M` gave an ABA EC50 of 32.6 µM.
`S117K` has an ABA EC50 of 679 µM.
For `I57R`, the ABA EC50 was 31.9 µM.
`F56I` gave an ABA EC50 of 995 µM.
The ABA EC50 of `G102F` is reported as 791 µM.
With `V161P` the ABA EC50 was 4.03 µM.
`Q51K` gave an ABA EC50 of 190 µM.
The ABA EC50 of `I105Y` is reported as 0.0595 µM.
For `S117Y`, the ABA EC50 was 0.727 µM.
The ABA EC50 of `Y115I` is reported as 2.41 µM.
With `H122W` the ABA EC50 was 936 µM.
`D153F` has an ABA EC50 of 224 µM.
`L91H` has an ABA EC50 of 107 µM.
`P50K` has an ABA EC50 of 278 µM.

Sample 5
Target: Protein C-ets-1 (ETS1, Homo sapiens, UniProt P14921, residues 1-441, K379A, full length assumed)
Method: protein-binding microarray
Form: double-stranded DNA, one strand shown
Matrix: in vitro
Tested at: not given
Setting: k-mer, scored over probes, only values ≥0.25
Direction: higher = stronger binding
Residues (chain): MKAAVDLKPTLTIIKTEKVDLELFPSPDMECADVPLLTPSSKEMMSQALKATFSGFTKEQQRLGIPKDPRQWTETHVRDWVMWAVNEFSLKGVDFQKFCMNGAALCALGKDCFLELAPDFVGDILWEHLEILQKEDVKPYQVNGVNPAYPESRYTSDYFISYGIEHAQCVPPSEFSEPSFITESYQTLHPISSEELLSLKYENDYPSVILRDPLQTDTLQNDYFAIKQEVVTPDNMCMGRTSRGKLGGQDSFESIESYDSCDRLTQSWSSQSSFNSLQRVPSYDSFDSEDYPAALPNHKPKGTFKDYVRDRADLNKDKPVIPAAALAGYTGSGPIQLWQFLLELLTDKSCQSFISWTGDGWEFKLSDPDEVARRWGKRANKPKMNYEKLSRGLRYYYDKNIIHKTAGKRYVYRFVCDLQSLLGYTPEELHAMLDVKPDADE
`GAGAACCA` has an E-score of 0.252.
`AATGTCGG` has an E-score of 0.285.
For `GCCGGTAC`, the E-score was 0.377.
With `AGCACCGG` the E-score was 0.336.
`ACAAAACG` gave an E-score of 0.255.
`GGCCGACA` has an E-score of 0.304.
With `GGTTGGAA` the E-score was 0.258.
With `GTTACATA` the E-score was 0.279.
`GCATGTCA` has an E-score of 0.267.
`CCATATAC` has an E-score of 0.336.
`ACACCGCC` has an E-score of 0.277.
With `ACAGACAA` the E-score was 0.257.
`CCCCCGGA` has an E-score of 0.366.
For `CCGGTGCG`, the E-score was 0.39.
With `TCGAACAA` the E-score was 0.263.
`ATACCGAC` gave an E-score of 0.3.
`TCACCGGA` has an E-score of 0.396.
`CCCCGGTC` has an E-score of 0.461.
`ACAGACCG` has an E-score of 0.294.
For `AACCTATA`, the E-score was 0.272.
`ACAAGACA` has an E-score of 0.271.
For `AGGCGGAA`, the E-score was 0.262.
`GGGCGGGA` gave an E-score of 0.396.
For `CGGCCGGC`, the E-score was 0.35.

Sample 6
Target: Sal-like protein 4, full length isoform B (SALL4, Homo sapiens, UniProt Q9UJQ4-2, residues 1-616)
Method: universal PBM
Form: double-stranded DNA, one strand shown
Matrix: in vitro
Tested at: not given
Setting: 8-mer, flanks averaged, mean of replicates
Direction: higher = stronger binding
For `ATGTGCAG`, the E-score was 0.114.
`GTACCTGA` has an E-score of 0.0453.
`AGGTCGAT` gave an E-score of -0.0512.
The E-score of `ACGTCGGC` is reported as -0.182.
The E-score of `TAGGAGAA` is reported as 0.0776.
`CTTGAACA` has an E-score of 0.00126.
`ACCTACGT` has an E-score of -0.0419.
`CGGGAAAC` has an E-score of -0.0685.
With `GAGGAAGC` the E-score was -0.242.
`ATTCCCAG` gave an E-score of -0.0698.
`CGAATGAA` has an E-score of 0.122.
`AAATTGGT` has an E-score of 0.123.
`CGGTCAGA` gave an E-score of -0.147.
`AACAGTTC` gave an E-score of 0.147.
`CCATTTCG` gave an E-score of -0.0927.
With `GCAATAAC` the E-score was 0.197.
With `ACACCCAC` the E-score was -0.213.
The E-score of `CTTAGTGC` is reported as -0.103.
